Measured values gathered from unrelated publications.
Every numbered part comes from another study and shows a few of its results, in no order.
Chain of UniProt P08922 (whole entry, looked up): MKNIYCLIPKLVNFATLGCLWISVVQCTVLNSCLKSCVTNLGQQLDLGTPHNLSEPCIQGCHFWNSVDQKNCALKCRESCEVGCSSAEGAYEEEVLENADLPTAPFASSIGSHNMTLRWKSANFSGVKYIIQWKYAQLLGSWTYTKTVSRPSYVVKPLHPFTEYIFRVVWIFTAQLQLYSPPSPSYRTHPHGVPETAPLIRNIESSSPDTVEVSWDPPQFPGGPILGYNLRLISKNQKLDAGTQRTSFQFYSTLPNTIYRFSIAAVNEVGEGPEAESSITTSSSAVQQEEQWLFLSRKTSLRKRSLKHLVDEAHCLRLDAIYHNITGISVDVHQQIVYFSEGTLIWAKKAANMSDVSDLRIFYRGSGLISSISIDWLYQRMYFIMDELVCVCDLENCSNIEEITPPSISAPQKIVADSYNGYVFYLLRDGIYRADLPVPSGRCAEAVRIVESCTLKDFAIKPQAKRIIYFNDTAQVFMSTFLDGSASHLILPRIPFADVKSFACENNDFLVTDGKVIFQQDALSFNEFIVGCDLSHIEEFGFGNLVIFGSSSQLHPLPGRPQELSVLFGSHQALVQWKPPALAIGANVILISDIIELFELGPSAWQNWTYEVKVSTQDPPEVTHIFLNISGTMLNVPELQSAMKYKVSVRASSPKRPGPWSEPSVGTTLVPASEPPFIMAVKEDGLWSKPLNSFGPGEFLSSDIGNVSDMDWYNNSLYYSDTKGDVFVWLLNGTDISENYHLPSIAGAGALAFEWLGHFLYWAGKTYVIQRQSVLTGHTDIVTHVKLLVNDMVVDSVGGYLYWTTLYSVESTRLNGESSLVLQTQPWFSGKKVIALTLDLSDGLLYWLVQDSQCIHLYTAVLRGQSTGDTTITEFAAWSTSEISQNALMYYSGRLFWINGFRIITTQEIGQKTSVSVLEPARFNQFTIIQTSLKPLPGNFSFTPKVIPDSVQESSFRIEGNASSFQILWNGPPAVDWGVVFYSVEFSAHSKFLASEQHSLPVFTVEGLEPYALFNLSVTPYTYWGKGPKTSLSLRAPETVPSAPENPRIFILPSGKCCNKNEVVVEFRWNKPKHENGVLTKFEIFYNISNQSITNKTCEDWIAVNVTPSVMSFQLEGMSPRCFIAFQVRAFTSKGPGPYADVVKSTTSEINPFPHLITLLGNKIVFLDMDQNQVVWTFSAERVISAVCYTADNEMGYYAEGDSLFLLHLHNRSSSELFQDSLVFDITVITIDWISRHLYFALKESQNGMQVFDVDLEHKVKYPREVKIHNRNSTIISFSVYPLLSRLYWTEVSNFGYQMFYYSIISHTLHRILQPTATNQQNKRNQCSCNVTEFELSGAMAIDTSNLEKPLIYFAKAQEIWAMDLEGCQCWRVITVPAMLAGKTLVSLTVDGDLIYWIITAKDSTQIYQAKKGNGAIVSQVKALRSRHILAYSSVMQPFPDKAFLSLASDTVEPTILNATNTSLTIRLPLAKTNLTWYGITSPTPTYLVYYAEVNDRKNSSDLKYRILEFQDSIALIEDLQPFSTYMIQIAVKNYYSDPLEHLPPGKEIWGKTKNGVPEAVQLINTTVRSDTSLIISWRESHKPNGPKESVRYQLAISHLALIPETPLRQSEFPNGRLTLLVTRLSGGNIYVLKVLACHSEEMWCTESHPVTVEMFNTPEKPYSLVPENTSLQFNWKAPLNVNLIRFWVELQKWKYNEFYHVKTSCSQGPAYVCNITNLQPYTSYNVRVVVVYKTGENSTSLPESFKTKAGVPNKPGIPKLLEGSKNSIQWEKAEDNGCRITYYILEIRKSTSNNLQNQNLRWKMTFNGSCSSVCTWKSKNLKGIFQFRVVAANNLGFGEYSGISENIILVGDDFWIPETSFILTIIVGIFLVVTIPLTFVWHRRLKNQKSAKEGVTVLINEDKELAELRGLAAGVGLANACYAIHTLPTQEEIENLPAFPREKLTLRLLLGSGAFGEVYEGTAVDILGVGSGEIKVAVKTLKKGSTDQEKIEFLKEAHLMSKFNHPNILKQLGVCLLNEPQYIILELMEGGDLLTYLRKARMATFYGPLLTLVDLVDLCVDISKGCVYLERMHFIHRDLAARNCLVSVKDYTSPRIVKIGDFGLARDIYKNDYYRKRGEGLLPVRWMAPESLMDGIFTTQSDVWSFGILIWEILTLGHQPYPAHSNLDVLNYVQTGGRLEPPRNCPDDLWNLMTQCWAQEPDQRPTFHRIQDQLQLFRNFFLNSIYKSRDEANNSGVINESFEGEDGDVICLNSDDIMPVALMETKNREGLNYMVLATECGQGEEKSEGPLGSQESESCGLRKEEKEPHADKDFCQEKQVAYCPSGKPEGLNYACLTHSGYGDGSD
Chain of UniProt Q15418 (whole entry, looked up): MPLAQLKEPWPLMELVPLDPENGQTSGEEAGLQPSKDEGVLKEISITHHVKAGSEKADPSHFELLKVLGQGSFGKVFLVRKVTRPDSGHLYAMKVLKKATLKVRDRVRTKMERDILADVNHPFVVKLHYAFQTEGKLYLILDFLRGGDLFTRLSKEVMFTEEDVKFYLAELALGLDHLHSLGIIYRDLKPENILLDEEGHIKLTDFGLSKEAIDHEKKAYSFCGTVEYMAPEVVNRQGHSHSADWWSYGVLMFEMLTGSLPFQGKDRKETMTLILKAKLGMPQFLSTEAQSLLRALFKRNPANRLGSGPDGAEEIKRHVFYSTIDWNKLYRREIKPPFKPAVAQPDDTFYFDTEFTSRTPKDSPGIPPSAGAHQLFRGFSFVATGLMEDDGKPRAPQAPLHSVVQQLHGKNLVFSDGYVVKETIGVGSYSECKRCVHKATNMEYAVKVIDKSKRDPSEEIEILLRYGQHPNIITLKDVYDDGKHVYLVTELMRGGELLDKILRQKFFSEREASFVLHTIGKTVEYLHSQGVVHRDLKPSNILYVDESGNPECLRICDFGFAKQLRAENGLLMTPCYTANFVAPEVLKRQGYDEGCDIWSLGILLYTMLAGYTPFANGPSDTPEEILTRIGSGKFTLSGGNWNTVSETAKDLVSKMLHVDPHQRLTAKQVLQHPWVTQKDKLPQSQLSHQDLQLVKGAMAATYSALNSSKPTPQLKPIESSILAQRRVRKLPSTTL
Chain of UniProt P24723 (whole entry, looked up): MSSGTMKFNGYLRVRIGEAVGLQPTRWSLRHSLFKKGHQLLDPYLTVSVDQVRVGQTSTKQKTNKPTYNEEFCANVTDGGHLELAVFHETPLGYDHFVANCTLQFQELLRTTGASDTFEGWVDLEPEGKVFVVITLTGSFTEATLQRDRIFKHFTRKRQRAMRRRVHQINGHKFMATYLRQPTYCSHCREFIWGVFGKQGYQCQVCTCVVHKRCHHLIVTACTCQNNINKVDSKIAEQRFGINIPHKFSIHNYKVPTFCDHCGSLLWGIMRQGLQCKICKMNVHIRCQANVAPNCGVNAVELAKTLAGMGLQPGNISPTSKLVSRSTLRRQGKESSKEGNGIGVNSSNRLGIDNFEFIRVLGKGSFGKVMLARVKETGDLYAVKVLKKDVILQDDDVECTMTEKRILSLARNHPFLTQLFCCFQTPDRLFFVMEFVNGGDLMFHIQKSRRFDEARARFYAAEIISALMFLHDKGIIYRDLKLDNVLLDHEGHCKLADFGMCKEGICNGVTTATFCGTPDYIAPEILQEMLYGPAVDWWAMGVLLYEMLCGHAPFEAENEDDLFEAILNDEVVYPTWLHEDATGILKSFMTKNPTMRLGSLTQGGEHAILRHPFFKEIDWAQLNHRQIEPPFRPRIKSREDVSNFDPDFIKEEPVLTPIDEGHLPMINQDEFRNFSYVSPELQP
Chain of UniProt P11802 (whole entry, looked up): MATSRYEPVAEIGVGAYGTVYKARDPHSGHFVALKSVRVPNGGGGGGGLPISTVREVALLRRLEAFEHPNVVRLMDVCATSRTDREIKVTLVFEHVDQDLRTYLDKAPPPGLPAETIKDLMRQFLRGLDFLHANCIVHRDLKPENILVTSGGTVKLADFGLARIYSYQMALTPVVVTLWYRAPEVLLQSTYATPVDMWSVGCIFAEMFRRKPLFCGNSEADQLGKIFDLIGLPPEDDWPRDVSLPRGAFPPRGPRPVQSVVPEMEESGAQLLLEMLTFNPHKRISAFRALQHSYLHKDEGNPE

Series 1
Target: G protein-coupled receptor kinase 6 (GRK6, Homo sapiens, UniProt P43250)
Chain of UniProt P43250 (whole entry, looked up): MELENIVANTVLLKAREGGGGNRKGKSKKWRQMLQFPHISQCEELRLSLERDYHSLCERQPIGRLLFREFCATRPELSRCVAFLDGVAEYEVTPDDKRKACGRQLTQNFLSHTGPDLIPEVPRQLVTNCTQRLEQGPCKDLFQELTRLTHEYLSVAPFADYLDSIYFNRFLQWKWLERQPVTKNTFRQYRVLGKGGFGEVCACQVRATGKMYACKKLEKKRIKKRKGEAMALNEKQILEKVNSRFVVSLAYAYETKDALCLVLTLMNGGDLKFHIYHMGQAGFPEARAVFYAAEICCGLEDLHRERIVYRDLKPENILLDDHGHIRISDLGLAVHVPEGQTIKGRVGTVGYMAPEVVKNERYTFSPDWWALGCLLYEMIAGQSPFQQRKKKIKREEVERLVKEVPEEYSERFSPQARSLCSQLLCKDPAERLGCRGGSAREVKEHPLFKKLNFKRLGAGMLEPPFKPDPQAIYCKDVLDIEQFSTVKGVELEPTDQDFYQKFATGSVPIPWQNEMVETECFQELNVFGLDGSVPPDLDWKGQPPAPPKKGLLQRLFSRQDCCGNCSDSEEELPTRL
Effect on: enzyme activity
Mode: inhibitor
Concentration: 0.5 µM
Relative to: control
Quantity: remaining activity
CN(C)c1ccc(C=C2C(=O)Nc3ccccc32)cc1: 102%
COc1cc2ncnc(Nc3ccc(F)c(Cl)c3)c2cc1OCCCN1CCOCC1: 99.6%
Cc1cccc(-c2[nH]c(C(C)(C)C)nc2-c2ccc3c(c2)OCO3)n1: 101%
Cc1nc(-c2ccccc2)c(-c2ccncc2)o1: 105%
Cn1c2ccccc2c2c3c(c4c5ccccc5n(CCC#N)c4c21)CNC3=O: 44.4%
CO[C@H]1C[C@@H]2CC[C@@H](C)[C@@](O)(O2)C(=O)C(=O)N2CCCC[C@H]2C(=O)O[C@H]([C@H](C)C[C@@H]2CC[C@@H](O)[C@H](OC)C2)CC(=O)[C@H](C)/C=C(\C)[C@@H](O)[C@@H](OC)C(=O)[C@H](C)C[C@H](C)/C=C/C=C/C=C/1C: 103%
O=C(Nc1cccc(Nc2cc(Nc3cccc(C(F)(F)F)c3)ncn2)c1)C1CC1: 98.3%
NCCNc1ncc(C(N)=O)c(Nc2cccc(C(F)(F)F)c2)n1: 95.1%
O=c1c2ccccc2[nH]c(=S)n1CCN1CCC(=C(c2ccc(F)cc2)c2ccc(F)cc2)CC1: 111%
O=C(O)c1ccc2c3c1cccc3c(=O)n1c3ccccc3nc21: 91.4%
COc1ccc(OC)c2c(=S)c3ccccc3[nH]c12: 97.2%
COc1ccc(C(=O)Nc2sc3c(c2C(N)=O)CCCC3)cc1OC: 98.5%
OCC(O)CCON=C1C(c2c(O)[nH]c3ccccc23)=Nc2ccccc21 (centres unmarked): 53.1%
Cc1ccc(NC(=O)c2ccc(CN3CCN(C)CC3)cc2)cc1Nc1nc(-c2cccnc2)cs1: 104%
Nc1[nH]nc2nc3ccccc3nc12: 104%
Cc1ccc(Nc2nccc(N(C)c3ccc4c(C)n(C)nc4c3)n2)cc1S(N)(=O)=O: 102%
CCOC(=O)c1c(C)[nH]c(/C=C2\C(=O)Nc3ccccc32)c1C: 90.8%
O=C(CCCc1ccc(-c2ccccc2F)cc1)Nc1ccc(O)cc1: 104%
O=C1NC(=O)C(c2cn(CCCn3ccnc3)c3ccccc23)=C1Nc1ccccc1: 98.4%
C#Cc1cccc(Nc2ncnc3cc(OCCOC)c(OCCOC)cc23)c1: 99.2%

Series 2
Structure (SMILES): CC(=O)N[C@@H](Cc1c[nH]c2ccccc12)C(=O)N[C@@H](CCC(=O)C=[N+]=[N-])C(=O)OC(C)C
Dose: dose not given
Relative to: vehicle
Quantity: log2 fold change
item: UDP-glucose; mouse, EL4 tumour-bearing, EL4 tumour: -1.51
item: N-acetylasparagine; mouse, EL4 tumour-bearing, EL4 tumour: 0.0556
item: ornithine; mouse, EL4 tumour-bearing, EL4 tumour: 0.591
item: gamma-glutamylleucine; mouse, EL4 tumour-bearing, EL4 tumour: 0.442
item: methionine sulfone; Mus musculus, EL4 tumour: -1.72
item: mesaconate; mouse, EL4 tumour, tumour: 2.54
metabolomics, item: 5-methylthioadenosine; mouse, EL4 tumour: -0.786
item: S-methylcysteine sulfoxide; mouse, EL4 tumour-bearing, EL4 tumour: -0.894
item: glucose 1-phosphate; mouse, EL4 tumour-bearing, EL4 tumour: 0.75
item: leucine; mouse, EL4 tumour-bearing, EL4 tumour: 0.428

Series 3
SMILES: CN([C@@H]1CCc2c(CC(=O)O)c3ccccc3n2C1)S(=O)(=O)c1ccc(F)cc1
Effect on: cell-free assay
Technique: competition with immobilised ligand
Concentration: 1 µM
Quantity: remaining binding
CLK3 (Homo sapiens, UniProt P49761): 97%
Cyclin-dependent kinase 4, with cyclin D1 (CDK4, Homo sapiens, UniProt P11802): 99%
MAP3K10 (Homo sapiens, UniProt Q02779): 100%
CASK (Homo sapiens, UniProt O14936): 66%
GRK4 (Homo sapiens, UniProt P32298): 100%
Ribosomal protein S6 kinase alpha-1, C-terminal kinase domain (RPS6KA1, Homo sapiens, UniProt Q15418): 100%
MARK2 (Homo sapiens, UniProt Q7KZI7): 100%
ROS1 (Homo sapiens, UniProt P08922): 100%
Tyrosine-protein kinase ABL1, phosphorylated (ABL1, Homo sapiens, UniProt P00519, T315I): 98%
PRKCH (Homo sapiens, UniProt P24723): 100%

Series 4
Organism: Sarcocystis neurona
Effect on: parasite growth
Concentration: 10 µM
Time: 96 h
Setting: second screen
Relative to: untreated
Quantity: log2 fold change
N#Cc1ccc(C(c2ccc(C#N)cc2)n2cncn2)cc1: 0.49
CC1(C)O[C@@H]2[C@@H](CO[C@@]3(COS(N)(=O)=O)OC(C)(C)O[C@@H]23)O1: 0.29
COC(=O)Nc1nc2ccc(C(=O)c3ccccc3)cc2[nH]1: 1.25
CN(C)CCCSc1ccccc1NC(=O)/C=C/c1ccccc1: 0.45
CCCC(CCC)C(=O)O: 0.22
Nc1nnc(-c2cccc(Cl)c2Cl)c(N)n1: 0.41
CC(N)C12CC3CC(CC(C3)C1)C2 (centres unmarked): 0.31
CC(C)(C(=O)c1cccnc1)c1cccnc1: 0.52
OC(c1cc(C(F)(F)F)nc2c(C(F)(F)F)cccc12)C1CCCCN1 (centres unmarked): -0.0129
c1ccc(CC2=NCCN2)cc1: 0.34

Excerpt of the above (series 2):
item: S-methylcysteine sulfoxide; mouse, EL4 tumour-bearing, EL4 tumour: -0.894
item: UDP-glucose; mouse, EL4 tumour-bearing, EL4 tumour: -1.51
item: gamma-glutamylleucine; mouse, EL4 tumour-bearing, EL4 tumour: 0.442
